Experimental data of several laboratories.
Numbered parts are unrelated; each lists some results of a single study. Changes are numbered by the printed parent chain.

Block 1
Target: CCNB3, cyclin fold, Cln2 fusion (human)
Technique: yeast growth competition, sequencing
Medium: yeast
Setting: weak parent motif
Relative to: not given
Direction: higher = stronger binding
Starting sequence: AKAP12 docking peptide (human); GSPLKKLFTSTGL; partner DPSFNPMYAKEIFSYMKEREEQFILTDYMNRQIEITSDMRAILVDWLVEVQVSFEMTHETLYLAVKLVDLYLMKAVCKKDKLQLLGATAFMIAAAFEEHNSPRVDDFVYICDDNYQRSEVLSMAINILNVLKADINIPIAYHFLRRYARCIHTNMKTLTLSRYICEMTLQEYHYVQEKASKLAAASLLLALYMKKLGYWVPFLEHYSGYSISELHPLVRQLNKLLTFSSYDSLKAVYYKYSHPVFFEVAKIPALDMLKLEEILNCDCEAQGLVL
Change	normalised enrichment score
GSPLKKLFTATGL [S10A]	0.344
GSPLKKAFTSTGL [L7A]	0.403
GSPLRKLFTSTGL [K5R]	0.315
GSPLKKLATSTGL [F8A]	0.204
ASPLKKLFTSTGL [G1A]	0.0539
GSPLKKLFTSTAL [G12A]	-0.341
GSPLKALFTSTGL [K6A]	-0.0345
GSPLKKLLTSTGL [F8L]	-0.284
GAPLKKLFTSTGL [S2A]	0.495
GSPLAKAFTSTGL [K5A L7A]	0.0952

Block 2
Target: RING finger protein unkempt homolog, zinc fingers 1-6, GST-SBP tag (UNK, Homo sapiens, UniProt Q9C0B0, residues 30-357)
Chain of UniProt Q9C0B0 (30-357, looked up): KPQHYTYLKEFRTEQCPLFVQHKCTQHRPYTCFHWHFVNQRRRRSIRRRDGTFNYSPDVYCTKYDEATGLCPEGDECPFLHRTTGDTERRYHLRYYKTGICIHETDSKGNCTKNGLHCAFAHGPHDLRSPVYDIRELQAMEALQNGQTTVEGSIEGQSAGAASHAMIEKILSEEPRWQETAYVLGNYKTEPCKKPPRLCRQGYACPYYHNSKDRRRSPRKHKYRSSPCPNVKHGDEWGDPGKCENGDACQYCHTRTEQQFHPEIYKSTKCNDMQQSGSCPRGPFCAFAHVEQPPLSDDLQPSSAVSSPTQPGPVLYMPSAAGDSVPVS
Technique: RNA Bind-n-Seq
Molecule type: RNA
Medium: in vitro
Concentration: not given
Setting: RNA with constant flanks, human-mouse chimeric sites, ends assumed
Relative to: input RNA pool
Direction: higher = stronger binding
Constant ends, left off below: GGGAGUUCUACAGUCCGACGAUC … CAACAGAGGAUUGAGCAUCA
Sequence	bound/input enrichment
AAAGAGAAACUAAAGCAACUAAUAGAGGAAGAGGAUUGCAAAGAGAAUUUCAUAGAGAAACUAGGAUUUAUUAGCAAAACAUGAGUUUAUUCCAGAGCGUCUCAGAAACCCCAGCCAAAC	9.39 ratio
UCCUGGUCGUGUCCCAGUGCAGGACGAUGUGAACAAAAACUCAAAGCGGACCCUCUAUUGUAGUUCUUGAUUCUCGAAAUGUGCUAUUAUUGUUUGUCUUUUUUUUUAAAAGAAAAGAGA	0.301 ratio
GAGUCGAGCAAACUUGAAACAAUUCGUUUUACAAAAACCUCAGUGUUCACUUGCUUGGCGAUAGCAUUGGGGUUUUAUAGGUUCUGGAAGGAGAACUUUAAUGCUCACUGCCGCUGCUGC	0.227 ratio
CUUUUUAAGAAGAUAUGUGAUGGGAUCUUCUAUACCCCUCAGUACUUAAACCCUUCAGUAAUCAGCCUUUUGAAACAUAUGCUGCAGGUGGAUCCCAUGAAGAGGGCCGCAAUAAAAGAU	0.221 ratio
CAGCCUCAGAGCCCUGACUUCCUGGAUAUUACCAACCCUAAAGCGGUAUUAGAAAAUGCAUUGAGAAACUUCGCCUGUCUGACGACUGGAGAUGUGAUUGCCAUCAACUACAAUGAGAAG	0.516 ratio
UAAGUUAUUUUGUACAGUAAGUUAUUUUCUUAACAUUUUUAUAUUGCCAUGUUUAUUUUGUUUGGGUAAUUUGGUUCAUUAAGUACAUAGCUAAGGUAAUGAACAUCGUAAUUAUAGAUU	3.33 ratio
GGCUGCUGGUGACUGUCCUGGAGUGGCUGGAGUUCCCGCCGGAGCGCGCGCAGGUUAAUUUUAGAAAAUGCCAAGUAGGAAGUUUGUUGAGGGUGAAGUGGUAAGAGGCCGAUGGCCUGG	6.79 ratio
AAAGAGUGGAUAGAGUGUGCACAUGGAAUCGGUGGGACCCGGGCGAAGAAAGAGUGCAAGAUAGAGUUCGAUGACUUCGAAGAGUGCUUGCUUCGGUACAAAACGAUGAGGCGAAUGCAU	0.338 ratio
CUAAUCCCCUUUACUGCUCCCCCACUUCUCAUGGUAAUAACAAAGUCUUAUAUCCCCGUCCUAGCUUUUACUCAGAUGGCUUAUGGAGCCGGUUUCCUAGCUUUCUUGGGAGGGAUCAGA	0.745 ratio
CAGCCUCAGAGCCCAGACUUCCUGGAUAUCACCAACCCUAAAGCGGUAUUAGAAAAUGCAUUGAGAAACUUCGCCUGUCUGACGACUGGAGAUGUGAUUGCCAUCAACUACAAUGAGAAG	0.5 ratio
GCCACCAAUUCCAGCCAACAUGACCCUUGCUGCCUACAAAGAGAAGAUGAAGGAACUCCCGCUGGUGUCCUUGUUCUGCUCCUGCUUCCUGGCCGAUCCCCUGAAUAAGUCGUCCUACAA	0.375 ratio

Block 3
Target: Interferon regulatory factor 7, full length, phosphomimetic (IRF7, Homo sapiens, UniProt Q92985, residues 1-503, S471D/S472D/S475D/S476D/S477D/S483D/S484D/S487D)
Technique: protein-binding microarray
Molecule type: double-stranded DNA, one strand shown
Medium: in vitro
Concentration: 2200 nM top
Setting: 60-bp whole probe
Together with: salmon DNA 0.4 mg/ml
Relative to: random background probes
Direction: higher = stronger binding
Constant ends, left off below: GCCTAGCAC … GTCTTGATTCGCTTGACGCTGCTG
Construct (chain): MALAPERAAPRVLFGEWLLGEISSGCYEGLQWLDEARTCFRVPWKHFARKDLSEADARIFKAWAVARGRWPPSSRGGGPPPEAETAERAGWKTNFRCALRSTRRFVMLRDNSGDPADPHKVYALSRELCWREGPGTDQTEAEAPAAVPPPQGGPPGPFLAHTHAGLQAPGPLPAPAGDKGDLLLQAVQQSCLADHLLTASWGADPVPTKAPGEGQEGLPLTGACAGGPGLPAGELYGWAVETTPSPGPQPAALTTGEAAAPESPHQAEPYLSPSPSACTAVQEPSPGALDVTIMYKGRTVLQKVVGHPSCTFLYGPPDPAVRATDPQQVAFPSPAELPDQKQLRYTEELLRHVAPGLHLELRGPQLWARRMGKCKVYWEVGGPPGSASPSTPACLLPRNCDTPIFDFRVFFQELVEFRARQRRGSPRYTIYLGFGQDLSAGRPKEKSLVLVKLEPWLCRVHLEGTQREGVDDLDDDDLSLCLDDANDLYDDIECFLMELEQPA
Sequence	fitted relative affinity [z-score]
TCAGGTATCGACACTGGGTTAGTGCTA	0.378
TTATGTATCGGGTTTCGGTTAGTGCTA	4.82
TGAGGTATCGGGTATCGGTTAGTGCTA	0.152
GACCGTATCGACTATCGGGACGTGCTA	0.294
ATATCTTATCCTATCAGTTTGTGCTAG	1.59
CAACCAATCATTTTTGCTTAGTGCTAG	1.07
ATTTTTTTGCATTGCTTCTAGTGCTAG	2
TCAGTTTTCGCTTTCTTACTGTGCTAG	10.9
GACGAACTGGACACTGGGGACGTGCTA	-0.36
TTGGGACTGGACACTGGGTTAGTGCTA	-0.885
GTAGAAAATTCATGTTATAAGTGCTAG	-0.137
GACGGTTTCCTTATGCTGACGTGCTAG	2.59
GACGGACTGGGGTATCTGGACGTGCTA	-0.631
TTAGGTATCGGACGGGGTTAGTGCTAG	-0.0867
TACGAACTGAGACTGGAGACGTGCTAG	-0.268
GACGGTTTCGGTCTGGGGACGTGCTAG	7.73
TTAGAACTGAGTATCTATTAGTGCTAG	-0.446
GACGGTTTCGGGACTGGGGACGTGCTA	3.64
GACGATCTCAGTCTCGAGAGGTGCTAG	0.0213

Block 4
Target: Histone acetyltransferase KAT6A, winged helix 1, GST fusion (KAT6A, Homo sapiens, UniProt Q92794, residues 1-85)
Technique: protein binding microarray
Molecule type: double-stranded DNA, one strand shown
Medium: in vitro
Concentration: not given
Setting: 8-mer, flanks averaged, mean of 2 arrays, mostly near background
Relative to: not given
Direction: higher = stronger binding
Construct (chain): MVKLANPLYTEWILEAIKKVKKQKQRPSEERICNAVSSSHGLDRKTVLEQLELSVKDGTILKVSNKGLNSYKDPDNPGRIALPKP
Sequence	E-score
TCGAAGAA	-0.203
ATGCCCTC	-0.067
AAACGACG	0.0348
CACTGGCC	-0.0115
TCACTAAA	-0.183
GCACCGCC	0.274
AAAAGCCG	0.335
ATCTTGTC	-0.138
GCCAGCGC	0.313
AGTAAGAG	-0.149
CCCCCAGA	-0.362
AAACTCGG	0.0642
ACGGTGCT	0.0971
GCTCCAGA	-0.144
GACGGCCC	0.395
AGCATATC	-0.0388
CGAATGCC	0.258
AAACATCG	-0.0652
ATCGCAAT	-0.0349
AGCGGTTA	0.13

Block 5
Target: PABPC1L2, full length, GST fusion (mouse, UniProt A0ABA7IW68)
Technique: RNAcompete
Molecule type: RNA
Medium: in vitro
Concentration: 20 nM
Setting: 7-mer, probes averaged, single round
Relative to: mean of 7-mers
Direction: higher = stronger binding
Residues (chain): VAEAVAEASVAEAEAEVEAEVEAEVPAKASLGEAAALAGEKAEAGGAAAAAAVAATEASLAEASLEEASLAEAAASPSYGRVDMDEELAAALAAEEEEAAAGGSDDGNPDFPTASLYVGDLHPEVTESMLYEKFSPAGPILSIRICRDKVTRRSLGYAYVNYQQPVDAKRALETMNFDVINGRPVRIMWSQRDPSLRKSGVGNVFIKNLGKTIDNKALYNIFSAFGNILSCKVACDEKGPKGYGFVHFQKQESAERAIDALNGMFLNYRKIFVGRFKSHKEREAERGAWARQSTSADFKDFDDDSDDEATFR
Sequence	7-mer Z-score
AACUCGA	0.0279
UCUGAAC	-0.186
GCAAACG	0.274
GUAACAU	-0.0428
AAUGGAC	0.173
AACAAAG	1.75
GGGUCGC	-0.0573
UCAGAUA	0.0587
CCCCCCC	-0.51
CUGACUC	-0.251
UAUGACA	-0.0192
UUGGUCG	-0.307
ACUAAUU	-0.15
UAGUGUU	-0.331
UAUUCCG	-0.306
CCCAGGC	-0.135
UUGCACC	-0.24
UGGAAAC	-0.0246

Block 6
Target: Prothrombin, mature alpha-thrombin (F2, Homo sapiens, UniProt P00734)
Technique: aptamer microarray, sandwich
Molecule type: DNA with 2'F-ANA
Medium: in vitro
Concentration: 200 nM
Setting: whole 15-mer aptamer, many near background
Together with: Cy3 exosite-II aptamer, 400 nM
Direction: higher = stronger binding
Sequence: GGTTGGTGTGGTTGG
Modification	mean fluorescence intensity [a.u.]
2'F-ANA at 1 2 4 7 9 15	128
2'F-ANA at 1 4 5 6 7 9 13 14	44.7
2'F-ANA at 2 3 6 7 8 12 13 14 15	419
2'F-ANA at 3 4 5 7 11 12 13 14	54.2
2'F-ANA at 6 8 9 10 14	110
2'F-ANA at 2 5 7 8 10 13	53.9
2'F-ANA at 2 4 5 6 13 14	44.7
2'F-ANA at 1 2 4 6 7 8 10 12 13	55.8
2'F-ANA at 1 4 6 7 8 9 12 13	182
2'F-ANA at 1 2 4 5 6 7 8 11 14	128
2'F-ANA at 1 2 4 6 7 10 13 15	68.4
2'F-ANA at 3 5 9 10 11 12 14	51.4
2'F-ANA at 1 2 6 11 13 15	108
2'F-ANA at 2 5 8 11 13 15	72.7
2'F-ANA at 2 5 6 7 10 15	53.2
2'F-ANA at 1 2 3 6 9 10 13	60.1
2'F-ANA at 2 3 4 7 13 14 15	315
2'F-ANA at 1 2 9 10 12 13 14 15	49.3
2'F-ANA at 2 3 5 7 8 10 14	49.4
2'F-ANA at 1 4 5 10 11 12 13	52.3
2'F-ANA at 1 2 5 10 11 13	59.7
2'F-ANA at 1 3 5 6 7 11 12 15	98.9
2'F-ANA at 1 3 5 10 12 15	46.7
2'F-ANA at 3 5 7 9 10 11 12	77.6
2'F-ANA at 2 3 4 6 9 11	488

Excerpt of the above (block 1):
Change	normalised enrichment score
GSPLRKLFTSTGL [K5R]	0.315
GSPLKKAFTSTGL [L7A]	0.403
GSPLKKLFTATGL [S10A]	0.344
GSPLKKLATSTGL [F8A]	0.204
GSPLKALFTSTGL [K6A]	-0.0345
GSPLAKAFTSTGL [K5A L7A]	0.0952
GAPLKKLFTSTGL [S2A]	0.495
GSPLKKLFTSTAL [G12A]	-0.341
GSPLKKLLTSTGL [F8L]	-0.284
ASPLKKLFTSTGL [G1A]	0.0539
